{"data": "Assay results from different studies", "CHRM1": "Muscarinic acetylcholine receptor M1 (CHRM1, Homo sapiens, UniProt P11229)", "note": "Each line is one published result; not all experiments were run side by side. Numbers after ± are the reported error.", "chain of UniProt P11229 (whole entry, looked up)": "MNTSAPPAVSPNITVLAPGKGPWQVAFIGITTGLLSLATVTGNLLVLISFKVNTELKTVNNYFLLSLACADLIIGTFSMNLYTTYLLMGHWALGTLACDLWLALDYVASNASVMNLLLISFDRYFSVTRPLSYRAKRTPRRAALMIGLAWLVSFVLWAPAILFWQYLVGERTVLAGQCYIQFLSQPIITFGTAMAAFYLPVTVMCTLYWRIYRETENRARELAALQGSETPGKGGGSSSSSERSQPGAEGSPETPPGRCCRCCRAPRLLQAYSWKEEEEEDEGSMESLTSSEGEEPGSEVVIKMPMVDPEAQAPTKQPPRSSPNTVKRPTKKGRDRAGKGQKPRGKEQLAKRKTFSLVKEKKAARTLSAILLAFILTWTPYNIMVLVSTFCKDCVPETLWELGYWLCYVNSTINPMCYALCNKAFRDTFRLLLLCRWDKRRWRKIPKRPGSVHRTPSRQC"}
{"Compound": "Cc1ccc(Cn2cc(/C=N/N3C(=O)CSC3=S)c3cc([N+](=O)[O-])ccc32)cc1", "tested on": "Leishmania major", "assay": "parasite growth, resazurin", "system": "THP-1", "conditions": "24 h, intracellular, amastigote", "endpoint": "IC50", "result": "> 10 µM"}
{"Compound": "Cc1ccc(COc2ccccc2-c2cc(=O)n(C3CCCCC3O)cn2)cn1 (stereo not drawn)", "tested on": "CHRM1", "assay": "positive allosteric modulator, IP1 accumulation", "system": "CHO-M1 cells", "conditions": "1 µM, 60 min, 37 °C, added: ACh", "scale": "relative to: ACh alone, higher = stronger potentiation", "endpoint": "ΔpEC50 of ACh", "result": "0.41 ± 0.1 log units"}
{"Compound": "C#CCn1cc(C=O)c2cc([N+](=O)[O-])ccc21", "tested on": "Leishmania major", "assay": "parasite growth, resazurin", "system": "THP-1", "conditions": "72 h, intracellular, amastigote", "endpoint": "IC50", "result": "2.41 µM"}
{"Compound": "COc1ccccc1C(=O)Nc1ccccc1Oc1ccc(N(C)C)cc1", "tested on": "Human immunodeficiency virus 1", "assay": "viral replication", "system": "MT4", "conditions": "7 days", "endpoint": "IC50", "result": "68 µM"}
{"Compound": "CCCCCc1ccc(-c2cc3ccccc3[nH]2)cc1", "tested on": "RAW264.7", "assay": "sulforhodamine B", "conditions": "50 µM, 20 h", "scale": "relative to: vehicle", "endpoint": "viability", "result": "132 ± 12.6%"}
{"Compound": "C#Cc1cccc(Nc2ncnc3cc(OC)c(OCCCCCCC(=O)NO)cc23)c1", "tested on": "Lucilia cuprina", "assay": "larval weight gain", "system": "LS strain, larvae on impregnated cotton wool", "conditions": "24 h", "endpoint": "IC50", "result": "> 1000 µg"}
{"Compound": "C=C1C[C@@]23CC[C@H]4[C@@](C)(CCC[C@@]4(C)C(=O)O)[C@@H]2CC[C@@H]1C3", "tested on": "Leishmania amazonensis", "conditions": "72 h, pH 4.6, axenic amastigotes", "endpoint": "IC50", "result": "4 µg/mL"}
{"Compound": "COc1ccccc1NC(=O)c1ccccc1Sc1ccc(N)cc1", "tested on": "Human immunodeficiency virus 1", "assay": "viral replication", "system": "MT4", "conditions": "7 days", "endpoint": "IC50", "result": "> 100 µM"}
{"Compound": "Brc1ccc(-c2cc3ccccc3[nH]2)cc1", "tested on": "RAW264.7", "assay": "sulforhodamine B", "conditions": "50 µM, 20 h", "scale": "relative to: vehicle", "endpoint": "viability", "result": "69.3 ± 2.7%"}
{"Compound": "O=[N+]([O-])c1ccc2[nH]ccc2c1", "tested on": "Leishmania major", "assay": "parasite growth, resazurin", "system": "THP-1", "conditions": "72 h, intracellular, amastigote", "endpoint": "IC50", "result": "> 10 µM"}
{"Compound": "Cc1cc(NC(=O)c2cc(C(F)(F)F)cc(C(F)(F)F)c2)ccc1NS(C)(=O)=O", "tested on": "Trypanosoma brucei brucei", "assay": "cell growth", "system": "Lister 427", "conditions": "48 h", "endpoint": "IC50", "result": "< 5 µM"}
{"Compound": "O=c1c(O)c(-c2cc(O)c(O)c(O)c2)oc2cc(O)cc(O)c12", "tested on": "human alphaherpesvirus 2", "assay": "viral replication", "system": "Vero, 333", "conditions": "24 h", "endpoint": "IC50", "result": "1.6 ± 0.5 µM"}
{"Compound": "O=Cc1c[nH]c2ccc([N+](=O)[O-])cc12", "tested on": "Trypanosoma congolense", "system": "trypomastigotes, IL3000", "endpoint": "IC50", "result": "> 131 µM"}
{"Compound": "CS(=O)(=O)c1ccc(-c2cnc(N)c(-c3ccc(C(F)(F)F)nc3)c2)cc1", "tested on": "Plasmodium cynomolgi", "assay": "schizont (large EEF) growth", "system": "primary rhesus hepatocytes", "conditions": "day 5, compound added at 120 h", "endpoint": "IC50", "result": "1.5 µM"}
{"Compound": "O=c1[nH]c2c([N+](=O)[O-])cccc2cc1-c1cccc(CO)c1", "tested on": "Trypanosoma brucei", "assay": "parasite growth, resazurin", "conditions": "74 h, trypomastigote", "endpoint": "IC50", "result": "1.5 µM"}
{"Compound": "CN1CCc2c(c3ccccc3n2Cc2ccc(C(=O)NO)cc2)C1", "tested on": "Lucilia cuprina", "assay": "larval weight gain", "system": "LS strain, larvae on impregnated cotton wool", "conditions": "24 h", "endpoint": "IC50", "result": "> 1000 µg"}
{"Compound": "COc1ccc(Oc2ccccc2NC(=O)c2ccccc2OC)cc1", "tested on": "Human immunodeficiency virus 1", "assay": "viral replication", "system": "MT4", "conditions": "7 days", "endpoint": "IC50", "result": "50.3 µM"}
{"Compound": "C#CCn1cc(/C=N/N2C(=O)CSC2=S)c2cc([N+](=O)[O-])ccc21", "tested on": "Trypanosoma congolense", "system": "trypomastigotes, IL3000", "endpoint": "IC50", "result": "> 59 µM"}
{"Compound": "O=C(O)c1ccc(COc2ccccc2-c2cc(=O)n(C3CCCCC3O)cn2)cc1 (stereo not drawn)", "tested on": "CHRM1", "assay": "positive allosteric modulator, IP1 accumulation", "system": "CHO-M1 cells", "conditions": "1 µM, 60 min, 37 °C, added: ACh", "scale": "relative to: ACh alone, higher = stronger potentiation", "endpoint": "ΔpEC50 of ACh", "result": "0.37 ± 0.1 log units"}
{"Compound": "Cc1ccc(Cn2cc(/C=C3\\SC(=S)NC3=O)c3cc([N+](=O)[O-])ccc32)cc1", "tested on": "Trypanosoma congolense", "system": "trypomastigotes, IL3000", "endpoint": "IC50", "result": "> 70 µM"}
{"Compound": "O=C(/C=C/c1cccc(S(=O)(=O)Nc2ccccc2)c1)NO", "tested on": "Lucilia cuprina", "assay": "larval weight gain", "system": "LS strain, larvae on impregnated cotton wool", "conditions": "24 h", "endpoint": "IC50", "result": "740 µg"}
{"Compound": "O=c1[nH]c2c([N+](=O)[O-])cccc2cc1-c1ccccc1", "tested on": "Trypanosoma brucei", "assay": "parasite growth, resazurin", "conditions": "74 h, trypomastigote", "endpoint": "IC50", "result": "4.7 µM"}
{"Compound": "N=C(N)c1ccc(-c2ccc(-c3ccc(C(=N)N)s3)s2)cn1", "tested on": "Trypanosoma brucei", "assay": "parasite growth", "system": "RHODESIENSE STIB900", "endpoint": "IC50", "result": "≤ 0.006 µM"}
{"Compound": "Nc1ccccc1NC(=O)c1ccc(CNc2nccc(-c3cccnc3)n2)cc1", "tested on": "Lucilia cuprina", "assay": "larval weight gain", "system": "LS strain, larvae on impregnated cotton wool", "conditions": "24 h", "endpoint": "IC50", "result": "> 1000 µg"}
{"note": "A few entries again:"}
{"Compound": "O=[N+]([O-])c1ccc2[nH]ccc2c1", "tested on": "Leishmania major", "assay": "parasite growth, resazurin", "system": "THP-1", "conditions": "72 h, intracellular, amastigote", "endpoint": "IC50", "result": "> 10 µM"}
{"Compound": "Cc1cc(NC(=O)c2cc(C(F)(F)F)cc(C(F)(F)F)c2)ccc1NS(C)(=O)=O", "tested on": "Trypanosoma brucei brucei", "assay": "cell growth", "system": "Lister 427", "conditions": "48 h", "endpoint": "IC50", "result": "< 5 µM"}
{"Compound": "O=c1c(O)c(-c2cc(O)c(O)c(O)c2)oc2cc(O)cc(O)c12", "tested on": "human alphaherpesvirus 2", "assay": "viral replication", "system": "Vero, 333", "conditions": "24 h", "endpoint": "IC50", "result": "1.6 ± 0.5 µM"}
